Experimental data of several laboratories.
Numbered parts are unrelated; each lists some results of a single study. Substitutions count along the parent as printed.

Sample 1 — target: CCNA1, cyclin fold, Cln2 fusion (human); technique: yeast growth competition, sequencing; sample: yeast; setting: weak parent motif; baseline: not given; reading: higher = stronger binding
Starting sequence: ASZ1 docking peptide (human); GFGFLLFICKLTF; partner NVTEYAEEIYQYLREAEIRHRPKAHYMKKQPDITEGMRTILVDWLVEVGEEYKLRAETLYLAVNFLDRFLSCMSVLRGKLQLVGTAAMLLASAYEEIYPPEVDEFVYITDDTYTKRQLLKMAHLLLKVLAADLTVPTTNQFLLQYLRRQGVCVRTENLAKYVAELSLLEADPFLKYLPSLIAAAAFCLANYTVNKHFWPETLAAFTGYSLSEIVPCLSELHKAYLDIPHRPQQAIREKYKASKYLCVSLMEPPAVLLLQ
| Change | normalised enrichment score |
| --- | --- |
| GFGALLFICKLTF [F4A] | -0.3 |
| GFGFLLFACKLTF [I8A] | -0.617 |
| GFGFLLAICKLTF [F7A] | -0.737 |

Sample 2 — technique: aptamer microarray, sandwich; form: DNA with 2'F-ANA; sample: in vitro; concentration: 200 nM; together with: Cy3 exosite-II aptamer, 400 nM; reading: higher = stronger binding; oligonucleotide: GGTTGGTGTGGTTGG
Target: Prothrombin, mature alpha-thrombin (F2, Homo sapiens, UniProt P00734)
Setting: whole 15-mer aptamer, many near background
| Modification | mean fluorescence intensity [a.u.] |
| --- | --- |
| 2'F-ANA at 1 2 3 4 11 15 | 162 |
| 2'F-ANA at 1 2 3 5 7 8 10 12 13 15 | 53.8 |
| 2'F-ANA at 2 3 5 7 12 13 14 15 | 55.7 |
| 2'F-ANA at 2 3 4 6 7 8 10 13 15 | 195 |
| 2'F-ANA at 1 2 6 7 9 10 11 12 13 15 | 64.6 |

Sample 3 — technique: RNA Bind-n-Seq; form: RNA; sample: in vitro; concentration: 1 µM; setting: whole 134-nt RNA, ends assumed; together with: 150 mM KCl; baseline: input library; reading: higher = stronger binding
Target: Ras GTPase-activating protein-binding protein 1, C-terminal RGG region (G3BP1, Homo sapiens, UniProt Q13283)
Chain of UniProt Q13283 (whole entry, looked up): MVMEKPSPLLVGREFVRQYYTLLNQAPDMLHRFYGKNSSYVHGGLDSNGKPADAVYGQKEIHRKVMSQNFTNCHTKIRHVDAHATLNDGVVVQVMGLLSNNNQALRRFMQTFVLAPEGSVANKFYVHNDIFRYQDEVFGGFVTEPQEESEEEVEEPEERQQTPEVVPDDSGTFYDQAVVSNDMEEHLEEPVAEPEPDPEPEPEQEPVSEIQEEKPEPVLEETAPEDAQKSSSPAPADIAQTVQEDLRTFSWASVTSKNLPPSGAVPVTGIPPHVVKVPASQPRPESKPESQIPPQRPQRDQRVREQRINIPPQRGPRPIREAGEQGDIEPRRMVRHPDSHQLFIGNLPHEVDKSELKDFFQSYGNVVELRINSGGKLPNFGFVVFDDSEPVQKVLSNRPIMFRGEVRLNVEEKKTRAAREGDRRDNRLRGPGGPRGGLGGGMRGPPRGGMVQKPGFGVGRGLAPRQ
Constant ends, left off below: GGGAGUUCUACAGUCCGACGAUC … UGGAAUUCUCGGGUGUCAAGG
| Oligonucleotide | log2 enrichment |
| --- | --- |
| CAAGUCCUGUGCUACACAUCGUAUGUACCGAAUCGGUUUGGGGUUUGGGUUUGGGAAAGUAUUAUGUUACGCCGUUCGGAUCUGCACUUC | -0.295 |
| GUCCUGUGCUACACAUCGUAUGUACCGAAUCGGGAAAAAGGGUUUUUUUGGGAAAGGGAAAGUAUUAUGUUACGCCGUUCGGAUCUGCAC | -0.835 |
| UGUCUGCGGACCUGGUUUCAGCGCUGGUGGGACUGCAGCCGGAGGUCAGCCCAGCAGAGACUGCAGCUGGAGAGGGCAGUGCAACACCAC | -1.2 |
| GCAGGAAGUAAAAACAAAUGGAAAUGCUUCGGAUAGUGGCAAAGGUGGGGGUUGCUAAGGAAAGGGUGGGAUGGGAGUGGGUAAAGAGUU | 2.29 |
| UAACUUUAGAGGAGGAUCUGAUGGAUAUGGCAGUGGACGUGGAUUUGGUGAUGGCUAUAAUGGGUAUGGAGGAGGACCUGGAGGUGGCAA | -1.15 |
| CUGCGCGCGGAUUUCCCUCUCUGAGGAAGUUUAUCCUUGUGCCUUCUGGAGGAUUUCUCUCUAGCUCGACUCACUCUGGACUGACUCGCU | -0.981 |

Single results of other studies
| Molecule | target | test | test system | setting | scale | quantity | result |
| --- | --- | --- | --- | --- | --- | --- | --- |
| PhoQ, residues 284 288 289 292 302 303 TNSAEL | PhoP, residues 12 14 15 18 19 SPWRL (Escherichia coli, UniProt P23836) | Sort-seq, refers to: YFP reporter | E. coli | PhoQ-PhoP variant library, together with: 10 µM Mg2+ | baseline: high Mg2+ state, higher = stronger signaling | fold induction | 0.892 |
